Results collected from several papers.
Each numbered part is a random draw from the data of one study; scales do not carry over between parts. Values joined by “and” are separate records of one study, mostly repeats; a detail may differ.
Sequence of UniProt Q01959 (whole entry, looked up): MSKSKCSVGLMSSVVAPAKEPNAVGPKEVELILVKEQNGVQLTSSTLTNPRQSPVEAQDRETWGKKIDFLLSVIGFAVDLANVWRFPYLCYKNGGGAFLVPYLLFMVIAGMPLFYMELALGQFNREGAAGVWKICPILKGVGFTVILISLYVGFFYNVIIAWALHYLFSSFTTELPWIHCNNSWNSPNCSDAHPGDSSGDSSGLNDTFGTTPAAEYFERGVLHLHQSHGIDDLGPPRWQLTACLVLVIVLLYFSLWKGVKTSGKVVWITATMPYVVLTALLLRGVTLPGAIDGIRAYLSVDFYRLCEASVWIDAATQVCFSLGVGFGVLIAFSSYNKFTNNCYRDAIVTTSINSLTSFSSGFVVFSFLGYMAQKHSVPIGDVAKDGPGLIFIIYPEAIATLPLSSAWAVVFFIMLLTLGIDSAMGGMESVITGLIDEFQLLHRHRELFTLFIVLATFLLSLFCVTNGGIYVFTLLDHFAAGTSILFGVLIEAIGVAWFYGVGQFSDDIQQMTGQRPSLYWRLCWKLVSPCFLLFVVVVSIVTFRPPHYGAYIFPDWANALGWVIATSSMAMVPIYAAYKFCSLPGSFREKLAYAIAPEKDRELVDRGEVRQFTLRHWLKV

Sample 1
Cell line: mouse MPNST tumor cells
Method: high-content nuclear imaging
Measured: cell number
Concentration: 10 µM
Time: 12 h
Notes: mean of 2 replicates
Relative to: plate mean
Direction: higher = more cells
Compound	nuclei count
S=C(NC1CCCCC1)N1CCC(c2cnc[nH]2)CC1	1.46 z-score and 1.34 z-score
C[C@]12CC[C@H]3[C@@H](CC[C@@]45O[C@@H]4C(O)=C(C#N)C[C@]35C)[C@@H]1CC[C@@H]2O	-0.764 z-score
Cc1cccc(NC(=O)N[C@@H]2N=C(c3ccccc3)c3ccccc3N(CC(=O)c3ccccc3C)C2=O)c1	2.05 z-score

Mixed results
POLQ ATPase domain: DNA polymerase theta, ATPase domain (POLQ, Homo sapiens, UniProt O75417)
Sequence of UniProt O75417 (whole entry, unmodified, looked up): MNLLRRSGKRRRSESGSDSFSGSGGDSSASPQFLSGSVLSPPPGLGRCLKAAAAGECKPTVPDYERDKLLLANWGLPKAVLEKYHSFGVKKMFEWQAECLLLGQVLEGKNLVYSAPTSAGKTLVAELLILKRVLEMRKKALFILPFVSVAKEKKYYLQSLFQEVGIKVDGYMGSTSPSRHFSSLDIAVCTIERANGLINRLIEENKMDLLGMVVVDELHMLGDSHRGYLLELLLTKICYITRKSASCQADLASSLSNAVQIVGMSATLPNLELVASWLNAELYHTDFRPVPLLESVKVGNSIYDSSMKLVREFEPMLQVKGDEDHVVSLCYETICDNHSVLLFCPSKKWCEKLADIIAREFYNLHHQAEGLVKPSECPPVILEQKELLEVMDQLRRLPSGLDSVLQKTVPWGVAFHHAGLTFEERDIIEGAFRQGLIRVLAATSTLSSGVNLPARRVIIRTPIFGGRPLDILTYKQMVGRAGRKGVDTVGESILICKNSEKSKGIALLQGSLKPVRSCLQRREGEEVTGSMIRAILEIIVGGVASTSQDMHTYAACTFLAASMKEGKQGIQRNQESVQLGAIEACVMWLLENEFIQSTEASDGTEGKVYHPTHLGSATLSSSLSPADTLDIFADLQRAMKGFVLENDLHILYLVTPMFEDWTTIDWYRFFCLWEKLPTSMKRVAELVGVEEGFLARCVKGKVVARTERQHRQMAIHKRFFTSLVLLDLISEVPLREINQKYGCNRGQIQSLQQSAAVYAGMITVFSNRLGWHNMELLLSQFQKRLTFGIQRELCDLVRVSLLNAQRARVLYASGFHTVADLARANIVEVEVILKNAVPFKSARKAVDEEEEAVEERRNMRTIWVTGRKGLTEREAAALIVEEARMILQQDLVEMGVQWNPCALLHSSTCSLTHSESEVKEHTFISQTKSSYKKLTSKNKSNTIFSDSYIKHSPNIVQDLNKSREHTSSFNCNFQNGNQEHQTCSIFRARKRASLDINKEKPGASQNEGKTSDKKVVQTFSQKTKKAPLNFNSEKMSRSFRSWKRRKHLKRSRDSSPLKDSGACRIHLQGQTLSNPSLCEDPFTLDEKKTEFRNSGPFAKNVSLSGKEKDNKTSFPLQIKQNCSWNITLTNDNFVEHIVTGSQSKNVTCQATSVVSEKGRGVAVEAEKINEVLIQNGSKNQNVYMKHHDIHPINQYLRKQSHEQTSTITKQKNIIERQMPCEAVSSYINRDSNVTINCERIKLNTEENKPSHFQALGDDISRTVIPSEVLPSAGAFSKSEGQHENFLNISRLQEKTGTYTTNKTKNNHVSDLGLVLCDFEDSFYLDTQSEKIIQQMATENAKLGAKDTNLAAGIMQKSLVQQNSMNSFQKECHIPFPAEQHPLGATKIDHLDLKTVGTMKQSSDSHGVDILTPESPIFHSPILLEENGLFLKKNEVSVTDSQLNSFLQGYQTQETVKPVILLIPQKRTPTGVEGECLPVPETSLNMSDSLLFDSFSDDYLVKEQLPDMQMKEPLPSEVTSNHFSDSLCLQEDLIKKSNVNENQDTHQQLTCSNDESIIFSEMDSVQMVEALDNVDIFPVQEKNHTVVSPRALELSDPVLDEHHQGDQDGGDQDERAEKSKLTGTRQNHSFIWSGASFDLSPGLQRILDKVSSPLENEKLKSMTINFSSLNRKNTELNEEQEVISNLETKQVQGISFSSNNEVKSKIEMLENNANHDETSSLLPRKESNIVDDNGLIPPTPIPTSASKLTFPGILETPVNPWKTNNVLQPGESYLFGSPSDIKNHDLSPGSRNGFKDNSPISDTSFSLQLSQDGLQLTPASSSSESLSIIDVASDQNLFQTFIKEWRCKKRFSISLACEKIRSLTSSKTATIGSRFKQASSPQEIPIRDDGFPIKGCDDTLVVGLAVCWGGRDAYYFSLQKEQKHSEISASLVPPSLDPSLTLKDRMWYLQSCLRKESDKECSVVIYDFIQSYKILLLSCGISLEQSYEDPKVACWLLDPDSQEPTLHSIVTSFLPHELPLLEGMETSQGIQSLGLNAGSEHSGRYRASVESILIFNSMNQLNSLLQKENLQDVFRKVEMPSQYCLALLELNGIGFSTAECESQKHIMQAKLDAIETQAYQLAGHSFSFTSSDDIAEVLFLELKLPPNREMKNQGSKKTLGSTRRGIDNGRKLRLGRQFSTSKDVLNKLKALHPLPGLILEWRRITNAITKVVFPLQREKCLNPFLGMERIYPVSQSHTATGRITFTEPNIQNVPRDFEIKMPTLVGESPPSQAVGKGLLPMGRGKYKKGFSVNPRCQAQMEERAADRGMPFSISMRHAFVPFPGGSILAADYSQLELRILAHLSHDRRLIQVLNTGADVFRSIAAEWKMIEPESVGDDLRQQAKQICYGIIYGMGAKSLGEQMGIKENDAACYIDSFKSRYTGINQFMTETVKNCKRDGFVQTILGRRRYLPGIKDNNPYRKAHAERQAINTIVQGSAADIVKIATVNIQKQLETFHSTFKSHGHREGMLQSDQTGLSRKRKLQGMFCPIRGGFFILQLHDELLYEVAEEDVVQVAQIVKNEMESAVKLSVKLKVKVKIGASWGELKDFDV
SMILES	tested on	assay	setting	scale	endpoint	result
C[C@]12CC[C@H](O)C[C@H]1CC[C@@H]1[C@@H]2CC[C@]2(C)[C@@H](C3=CC(=O)OC3)CC[C@]12O	POLQ ATPase domain	enzyme activity, inhibitor	77 µM	relative to: untreated	remaining activity	102%
CCc1ccccc1C(=O)Nc1n[nH]c2c(C)c(F)c(C3C(C#N)=C(C)N(C)C(C)=C3C#N)cc12	SLC6A3 (Homo sapiens, UniProt Q01959)	ligand displacement	10 µM		inhibition	-11.3%
O=C(CCCN1CCC(n2c(=O)[nH]c3ccccc32)CC1)c1ccc(F)cc1	POLQ ATPase domain	enzyme activity, inhibitor	77 µM	relative to: untreated	remaining activity	104%
CC(C)(C)c1cnc(CSc2cnc(NC(=O)C3CCN(CCCCCSc4cccc5c4CN(C4CCC(=O)NC4=O)C5=O)CC3)s2)o1 (centres unmarked)	HEK293T	trypan blue exclusion	1000 nM, 24 h		viability	84.5% and 89.2% and 87.9%
C[C@H]1CCC/C=C/[C@@H]2C[C@H](O)C[C@H]2[C@H](O)/C=C/C(=O)O1	POLQ ATPase domain	enzyme activity, inhibitor	77 µM	relative to: untreated	remaining activity	98.3%

A few entries again (sample 1):
Compound	nuclei count
S=C(NC1CCCCC1)N1CCC(c2cnc[nH]2)CC1	1.46 z-score and 1.34 z-score
